Measured values from different studies.
Numbered parts are unrelated; each lists some results of a single study. Substitutions count along the parent as printed.

Block 1
Target: CCND1, cyclin fold, Cln2 fusion (human)
Technique: yeast growth competition, sequencing
Medium: yeast
Setting: strong parent motif
Relative to: not given
Reading: higher = stronger binding
Starting sequence: viral docking peptide; YKVKRRLVFGADD; partner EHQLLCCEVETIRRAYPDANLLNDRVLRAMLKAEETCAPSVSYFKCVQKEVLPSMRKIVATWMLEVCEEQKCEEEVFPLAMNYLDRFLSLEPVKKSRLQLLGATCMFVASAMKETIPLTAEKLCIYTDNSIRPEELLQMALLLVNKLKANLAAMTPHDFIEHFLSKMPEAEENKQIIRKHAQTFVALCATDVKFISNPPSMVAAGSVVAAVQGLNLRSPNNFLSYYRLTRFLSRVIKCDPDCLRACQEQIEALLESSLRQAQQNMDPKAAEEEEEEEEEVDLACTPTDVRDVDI
For `YEVKRRLVFGADD [K2E]`, “normalised enrichment score” read 2.14.
Under “normalised enrichment score”, `YKVKMRLVFGADD [R5M]` is recorded as 0.344.
`YKVKRRLVFGWDD [A11W]` — result for “normalised enrichment score”: 1.29.
`YKVKRRLVYGADD [F9Y]`: “normalised enrichment score” 0.528.
For `YKVKGRLVFGADD [R5G]`, “normalised enrichment score” read -0.131.
`YKVKRWLVFGADD [R6W]` — result for “normalised enrichment score”: 0.505.
For `YKVKRLLVFGADD [R6L]`, “normalised enrichment score” read 0.684.
`YKVHRRLVFGADD [K4H]` — result for “normalised enrichment score”: 0.386.

Block 2
Target: HLA class I histocompatibility antigen, A alpha chain, allele A*25:01 (Homo sapiens, UniProt P04439)
Observed: peptide-MHC binding
Molecule type: peptide
Concentration: concentration not given
`FQAGWEDPT`: binding “inactive”.
For `WAKLLKQKW`, binding read “inactive”.
Under binding, `GMMRWCMPV` is recorded as “inactive”.
Under binding, `SLMSRVVYK` is recorded as “inactive”.
For `ATATWFQYY`, binding read “inactive”.
`TMGPHPAGV`: binding “inactive”.
`LTDRELLLL`: binding “inactive”.
For `FIVEHINAM`, binding read “active”.

Block 3
Target: UBE2D2 UBC core domain (UniProt P62837)
Chain of UniProt P62837 (whole entry, looked up): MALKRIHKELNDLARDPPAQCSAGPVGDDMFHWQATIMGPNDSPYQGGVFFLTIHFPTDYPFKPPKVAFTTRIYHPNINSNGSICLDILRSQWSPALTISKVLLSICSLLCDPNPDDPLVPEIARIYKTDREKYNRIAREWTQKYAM
Technique: yeast two-hybrid
Medium: yeast
Setting: mostly zero background
Relative to: not given
Reading: higher = stronger interaction
B1: RNF24 RING domain (UniProt Q9Y225); chain KVKELNLHELCAVCLEDFKPRDELGICPCKHAFHRKCLIKWLEVRKVCPLCNMPVLQLAQLH
B2: RNF135 RING domain (UniProt Q8IUD6); chain PVWLAEDDLGCIICQGLLDWPATLPCGHSFCRHCLEALWGARDARRWACPTCRQGAAQQPHLR
B3: DTX1 RING domain (UniProt Q86Y01); chain QKVKNPPDEDCTICMERLVTASGYEGVLRHKGVRPELVGRLGRCGHMYHLLCLVAMYSNGNKDGSLQCPTCKAIYGEKTGTQ
B4: PRKN RING domain (UniProt O60260); chain LIATNSRNITCITCTDVRSPVLVFQCNSRHVICLDCFHLYCVTRLNDRQFVHDPQLGYSLPCVAGCPNSLIKELHH
B5: TRIM48 RING domain (UniProt Q8IWZ4); chain ISQVFQRELTCPICMNYFIDPVTIDCGHSFCRPCFYLNWQDIPILTQCFECIKTIQQRNLKT
`B1 (RNF24 RING domain)`: “lacZ reporter activity” 0.
For `B2 (RNF135 RING domain)`, “lacZ reporter activity” read 0.
For `B3 (DTX1 RING domain)`, “lacZ reporter activity” read 12300.
Under “lacZ reporter activity”, `B4 (PRKN RING domain)` is recorded as 0.
`MDDQGCPRCKTTKYRNPSLKLMVNVCGHTLCESCVDLLFVRGAGNCPECGTPLRKSNFRV (MNAT1 RING domain (UniProt P51948))` — result for “lacZ reporter activity”: 0.
`B5 (TRIM48 RING domain)`: “lacZ reporter activity” 0.
Under “lacZ reporter activity”, `QLRRLQEERTCKVCLDRAVSIVFVPCGHLVCAECAPGLQLCPICRAPVRSRVRTF (BIRC7 RING domain (UniProt Q96CA5))` is recorded as 0.
For `KLWDINAHITCRLCSGYLIDATTVTECLHTFCRSCLVKYLEENNTCPTCRIVIHQSHPLQ (PCGF3 RING domain (UniProt Q3KNV8))`, “lacZ reporter activity” read 0.

Further values, each from its own experiment
For `NCCc1ccccn1`, the inhibition was 9.4% (Sarcocystis neurona; parasite growth; 10 µM).

Excerpt of the above (block 3):
Under “lacZ reporter activity”, `B4 (PRKN RING domain)` is recorded as 0.
`MDDQGCPRCKTTKYRNPSLKLMVNVCGHTLCESCVDLLFVRGAGNCPECGTPLRKSNFRV (MNAT1 RING domain (UniProt P51948))` — result for “lacZ reporter activity”: 0.
`B5 (TRIM48 RING domain)`: “lacZ reporter activity” 0.
